Experimental data gathered from unrelated publications.
Each numbered part is a random draw from the data of one study; scales do not carry over between parts.

Study 1 — target: Sox-I, HMG box (Salpingoeca helianthica); method: Spec-seq; form: double-stranded DNA, one strand shown; medium: in vitro; tested at: not given; notes: whole probe, mean of replicates; baseline: not given; direction: lower = stronger binding; shared flanks, not repeated: GAGTCGTCTCGTCAGCAC … CCGTAGAGCACTCAGGTC
Target sequence (chain): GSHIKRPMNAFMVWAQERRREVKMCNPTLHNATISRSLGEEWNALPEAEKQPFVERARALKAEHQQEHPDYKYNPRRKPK
For `GTCCGTT`, “relative binding energy” read 0.889 ln ratio.
For `CATGTAC`, “relative binding energy” read 0.668 ln ratio.
For `CATGACC`, “relative binding energy” read 0.726 ln ratio.
Under “relative binding energy”, `CATTGCC` is recorded as 0.953 ln ratio.
Under “relative binding energy”, `CATGGTA` is recorded as 0.755 ln ratio.
`CTAGGTT` — result for “relative binding energy”: 0.979 ln ratio.

Study 2 — method: RNA Bind-n-Seq; form: RNA; medium: in vitro; tested at: 365 nM; baseline: no-protein control; direction: higher = stronger binding
Target: RNA binding protein fox-1 homolog 2, RRM domain, GST-SBP tag (RBFOX2, Homo sapiens, UniProt O43251-10, residues 100-194)
Notes: natural RNA segment, single round, ends assumed
Target sequence (chain): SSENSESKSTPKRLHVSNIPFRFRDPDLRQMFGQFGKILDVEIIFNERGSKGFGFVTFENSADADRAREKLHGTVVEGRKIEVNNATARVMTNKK
For `GGGAGUUCUACAGUCCGACGAUCAAAUGUAUCUUUUGGUUGUUUGAUUUUUCUUUCUUUCUUUGUAAAUAGUUCUGAGUUCUGUCAAAUGCCGUGAAAGUAUUUGCUAUAAUAAAGAAAAUUCUUGUGACUUUUGGAAUUCUCGGGUGCCAA`, “RBNS enrichment (R)” read 0.431.
For `GGGAGUUCUACAGUCCGACGAUCUCUAGCUUCAUGCUGGGUCAAGGUGGUUUACCUGGAUGACCCCCCUCCCCCGCCCUCGCCCAUCCCAGGUGUGUGCCACACCCAGUAUUUCUUUCAGGUCUCAACUGUGGUGGAAUUCUCGGGUGCCAA`, “RBNS enrichment (R)” read 0.26.
Under “RBNS enrichment (R)”, `GGGAGUUCUACAGUCCGACGAUCAGGGUUGUCAGUGCAUCAGAAAUACUUCUAAAUAGUGGUAAAAAUGCACAUGGUUAAUGCACAUGUUACUUUUAAAUCAUUAGGAUAUCCCUCACCUGUUCCUGAUGAAUUGGAAUUCUCGGGUGCCAA` is recorded as 0.572.
`GGGAGUUCUACAGUCCGACGAUCCUGAAGGAAACAUGACCAUUCUGAGUUUAAAAAAAAGUACAAAUUGCUUCUGAGGCACUAUUUGCCCUAAAAUAUAAUGGGCUUUUGUUUUGAGACUGGGUUUCAUUCUGUGGAAUUCUCGGGUGCCAA`: “RBNS enrichment (R)” 0.395.

Study 3 — method: protein-binding microarray; form: double-stranded DNA, one strand shown; medium: in vitro; tested at: 250 nM; notes: 60-bp whole probe; together with: salmon DNA 0.4 mg/ml; baseline: random background probes; direction: higher = stronger binding; shared flanks, not repeated: GCCTAGCAC … GTCTTGATTCGCTTGACGCTGCTG
Target: Interferon regulatory factor 7, full length, phosphomimetic (IRF7, Homo sapiens, UniProt Q92985, residues 1-503, S101K/S471D/S472D/S475D/S476D/S477D/S483D/S484D/S487D)
Construct (chain): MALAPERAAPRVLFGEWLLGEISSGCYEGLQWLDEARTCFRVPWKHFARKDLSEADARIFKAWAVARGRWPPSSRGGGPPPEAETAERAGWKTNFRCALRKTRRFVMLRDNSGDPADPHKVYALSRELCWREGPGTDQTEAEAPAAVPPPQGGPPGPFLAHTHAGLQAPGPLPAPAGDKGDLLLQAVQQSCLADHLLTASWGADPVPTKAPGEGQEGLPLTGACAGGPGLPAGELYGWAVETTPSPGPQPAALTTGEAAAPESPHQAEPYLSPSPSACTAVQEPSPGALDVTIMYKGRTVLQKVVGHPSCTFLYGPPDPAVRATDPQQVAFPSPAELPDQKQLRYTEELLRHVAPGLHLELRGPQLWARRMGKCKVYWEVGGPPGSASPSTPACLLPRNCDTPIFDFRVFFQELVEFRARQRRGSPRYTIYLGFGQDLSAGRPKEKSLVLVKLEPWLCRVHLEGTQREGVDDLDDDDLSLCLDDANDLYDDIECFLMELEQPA
The log fluorescence of `GACGGACTGGACTATCGGGACGTGCTA` is reported as -0.647 z-score.
With `TTAGGTCTCGGCCTGGGTTAGTGCTAG` the log fluorescence was -0.0786 z-score.
With `TAAGGTCTCGGTATCGGTTAGTGCTAG` the log fluorescence was 3.49 z-score.
The log fluorescence of `GACGGAATCCTTCTCCTGACGTGCTAG` is reported as -0.374 z-score.
`TTAGATCTCCGTCTCGATTAGTGCTAG` gave a log fluorescence of 0.358 z-score.

Other studies, line by line
The fold induction of `PhoQ, residues 284 288 289 292 302 303 TLMATV` is reported as 2.1 (PhoP, residues 12 14 15 18 19 TQAIL (Escherichia coli, UniProt P23836); Sort-seq, refers to: YFP reporter; E. coli; PhoQ-PhoP variant library, together with: 10 µM Mg2+; baseline: high Mg2+ state, higher = stronger signaling).

A few entries again (study 2):
For `GGGAGUUCUACAGUCCGACGAUCAAAUGUAUCUUUUGGUUGUUUGAUUUUUCUUUCUUUCUUUGUAAAUAGUUCUGAGUUCUGUCAAAUGCCGUGAAAGUAUUUGCUAUAAUAAAGAAAAUUCUUGUGACUUUUGGAAUUCUCGGGUGCCAA`, “RBNS enrichment (R)” read 0.431.
For `GGGAGUUCUACAGUCCGACGAUCUCUAGCUUCAUGCUGGGUCAAGGUGGUUUACCUGGAUGACCCCCCUCCCCCGCCCUCGCCCAUCCCAGGUGUGUGCCACACCCAGUAUUUCUUUCAGGUCUCAACUGUGGUGGAAUUCUCGGGUGCCAA`, “RBNS enrichment (R)” read 0.26.
Under “RBNS enrichment (R)”, `GGGAGUUCUACAGUCCGACGAUCAGGGUUGUCAGUGCAUCAGAAAUACUUCUAAAUAGUGGUAAAAAUGCACAUGGUUAAUGCACAUGUUACUUUUAAAUCAUUAGGAUAUCCCUCACCUGUUCCUGAUGAAUUGGAAUUCUCGGGUGCCAA` is recorded as 0.572.
